{"data": "Published values from different studies", "CHRM5": "Muscarinic acetylcholine receptor M5 (CHRM5, Homo sapiens, UniProt P08912)", "ESR2": "Estrogen receptor beta (ESR2, Homo sapiens, UniProt Q92731)", "C3AR1": "C3a anaphylatoxin chemotactic receptor (C3AR1, Homo sapiens, UniProt Q16581)", "ADORA1": "Adenosine receptor A1 (ADORA1, Homo sapiens, UniProt P30542)", "ESR1": "Estrogen receptor (ESR1, Homo sapiens, UniProt P03372)", "note": "Lines come from different studies, so protocols differ. Values joined by “and” are separate records of one study, mostly repeats; a detail may differ. Numbers after ± are the reported error.", "sequence of UniProt P08912 (whole entry, looked up)": "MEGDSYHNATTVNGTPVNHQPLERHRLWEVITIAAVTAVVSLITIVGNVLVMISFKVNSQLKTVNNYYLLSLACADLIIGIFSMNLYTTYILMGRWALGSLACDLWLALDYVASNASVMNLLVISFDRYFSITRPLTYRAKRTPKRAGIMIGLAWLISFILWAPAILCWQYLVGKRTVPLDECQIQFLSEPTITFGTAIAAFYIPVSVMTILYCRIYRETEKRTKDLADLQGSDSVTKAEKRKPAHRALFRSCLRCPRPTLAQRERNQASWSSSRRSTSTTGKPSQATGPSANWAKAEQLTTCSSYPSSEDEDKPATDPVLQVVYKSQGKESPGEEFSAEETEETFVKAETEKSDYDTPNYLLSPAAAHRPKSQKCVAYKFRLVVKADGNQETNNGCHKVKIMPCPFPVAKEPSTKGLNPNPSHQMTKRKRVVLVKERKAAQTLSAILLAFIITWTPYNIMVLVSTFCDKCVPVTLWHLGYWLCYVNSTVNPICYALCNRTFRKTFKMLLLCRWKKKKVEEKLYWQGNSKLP", "sequence of UniProt Q61143 (whole entry, unmodified, looked up)": "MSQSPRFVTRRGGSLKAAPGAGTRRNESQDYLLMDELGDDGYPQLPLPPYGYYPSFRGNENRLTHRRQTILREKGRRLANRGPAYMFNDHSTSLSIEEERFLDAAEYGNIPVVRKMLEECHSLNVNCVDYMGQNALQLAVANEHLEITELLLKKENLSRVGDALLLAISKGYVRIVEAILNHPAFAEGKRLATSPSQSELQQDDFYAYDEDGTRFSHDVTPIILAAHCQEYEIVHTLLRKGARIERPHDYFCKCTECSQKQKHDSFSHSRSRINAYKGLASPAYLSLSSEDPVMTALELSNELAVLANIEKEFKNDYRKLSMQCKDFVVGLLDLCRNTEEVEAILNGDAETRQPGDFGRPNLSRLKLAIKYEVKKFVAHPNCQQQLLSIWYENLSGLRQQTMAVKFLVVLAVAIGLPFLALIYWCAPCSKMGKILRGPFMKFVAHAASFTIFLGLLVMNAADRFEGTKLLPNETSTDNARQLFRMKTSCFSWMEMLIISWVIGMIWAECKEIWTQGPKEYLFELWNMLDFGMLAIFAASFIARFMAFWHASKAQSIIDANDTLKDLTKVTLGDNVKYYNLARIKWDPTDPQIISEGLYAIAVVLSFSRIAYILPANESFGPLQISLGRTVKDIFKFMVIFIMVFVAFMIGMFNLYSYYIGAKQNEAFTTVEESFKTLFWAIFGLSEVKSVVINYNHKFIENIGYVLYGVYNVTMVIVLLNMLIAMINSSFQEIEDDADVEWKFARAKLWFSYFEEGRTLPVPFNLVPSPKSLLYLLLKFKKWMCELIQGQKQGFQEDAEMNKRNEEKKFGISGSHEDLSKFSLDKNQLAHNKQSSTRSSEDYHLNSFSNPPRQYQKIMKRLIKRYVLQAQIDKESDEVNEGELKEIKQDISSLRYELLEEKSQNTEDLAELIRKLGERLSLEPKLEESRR", "sequence of UniProt P30542 (whole entry, looked up)": "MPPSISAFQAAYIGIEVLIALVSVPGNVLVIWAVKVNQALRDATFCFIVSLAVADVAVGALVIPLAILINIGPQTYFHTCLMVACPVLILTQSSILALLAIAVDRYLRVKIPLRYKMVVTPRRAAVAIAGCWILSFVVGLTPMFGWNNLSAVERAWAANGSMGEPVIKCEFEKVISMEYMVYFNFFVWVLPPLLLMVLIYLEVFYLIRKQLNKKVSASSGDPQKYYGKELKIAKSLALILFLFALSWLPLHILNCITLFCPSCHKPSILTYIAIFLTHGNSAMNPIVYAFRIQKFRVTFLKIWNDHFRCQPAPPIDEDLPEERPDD", "sequence of UniProt Q92731 (whole entry, looked up)": "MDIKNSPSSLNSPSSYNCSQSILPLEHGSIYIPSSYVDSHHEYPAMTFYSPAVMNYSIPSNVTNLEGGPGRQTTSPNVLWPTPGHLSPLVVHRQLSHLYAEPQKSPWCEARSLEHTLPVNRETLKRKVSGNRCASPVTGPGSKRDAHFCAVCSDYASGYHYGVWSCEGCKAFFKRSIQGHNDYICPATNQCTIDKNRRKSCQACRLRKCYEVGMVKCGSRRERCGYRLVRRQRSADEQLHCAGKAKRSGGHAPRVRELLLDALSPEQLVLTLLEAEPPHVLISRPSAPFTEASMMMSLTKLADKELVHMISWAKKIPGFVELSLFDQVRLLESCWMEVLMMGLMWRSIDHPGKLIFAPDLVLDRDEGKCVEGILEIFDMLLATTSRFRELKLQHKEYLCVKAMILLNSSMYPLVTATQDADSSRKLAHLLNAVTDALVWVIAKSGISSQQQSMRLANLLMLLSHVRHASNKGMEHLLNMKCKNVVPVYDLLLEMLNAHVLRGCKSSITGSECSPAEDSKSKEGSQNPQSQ", "sequence of UniProt Q16581 (whole entry, looked up)": "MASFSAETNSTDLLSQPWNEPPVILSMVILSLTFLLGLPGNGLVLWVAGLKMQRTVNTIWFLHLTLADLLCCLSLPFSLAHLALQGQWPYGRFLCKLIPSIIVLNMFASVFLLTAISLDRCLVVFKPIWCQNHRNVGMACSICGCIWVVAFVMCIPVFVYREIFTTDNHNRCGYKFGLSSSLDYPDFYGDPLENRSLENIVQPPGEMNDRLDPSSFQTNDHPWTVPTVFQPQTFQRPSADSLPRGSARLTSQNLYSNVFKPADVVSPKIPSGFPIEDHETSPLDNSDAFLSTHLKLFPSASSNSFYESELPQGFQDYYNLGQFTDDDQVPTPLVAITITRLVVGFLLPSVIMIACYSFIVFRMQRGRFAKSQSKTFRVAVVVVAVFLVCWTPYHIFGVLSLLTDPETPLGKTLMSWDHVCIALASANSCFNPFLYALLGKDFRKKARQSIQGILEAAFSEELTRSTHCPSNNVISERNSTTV", "sequence of UniProt P03372 (whole entry, looked up)": "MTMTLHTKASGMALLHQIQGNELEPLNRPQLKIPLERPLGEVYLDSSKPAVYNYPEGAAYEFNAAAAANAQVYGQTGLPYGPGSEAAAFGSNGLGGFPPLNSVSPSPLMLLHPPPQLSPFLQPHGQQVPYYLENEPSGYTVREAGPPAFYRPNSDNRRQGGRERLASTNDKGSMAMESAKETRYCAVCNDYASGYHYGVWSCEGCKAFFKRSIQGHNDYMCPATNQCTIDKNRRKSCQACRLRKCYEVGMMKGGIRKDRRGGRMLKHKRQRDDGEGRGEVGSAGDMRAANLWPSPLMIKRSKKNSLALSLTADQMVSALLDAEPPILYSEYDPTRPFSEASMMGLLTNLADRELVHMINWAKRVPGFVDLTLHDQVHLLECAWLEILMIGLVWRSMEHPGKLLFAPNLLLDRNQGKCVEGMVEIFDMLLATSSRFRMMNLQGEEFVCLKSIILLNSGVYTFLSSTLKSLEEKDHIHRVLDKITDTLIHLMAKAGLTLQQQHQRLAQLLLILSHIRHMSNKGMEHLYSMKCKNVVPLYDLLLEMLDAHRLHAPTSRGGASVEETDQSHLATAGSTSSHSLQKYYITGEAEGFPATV", "sequence of UniProt P49685 (whole entry, looked up)": "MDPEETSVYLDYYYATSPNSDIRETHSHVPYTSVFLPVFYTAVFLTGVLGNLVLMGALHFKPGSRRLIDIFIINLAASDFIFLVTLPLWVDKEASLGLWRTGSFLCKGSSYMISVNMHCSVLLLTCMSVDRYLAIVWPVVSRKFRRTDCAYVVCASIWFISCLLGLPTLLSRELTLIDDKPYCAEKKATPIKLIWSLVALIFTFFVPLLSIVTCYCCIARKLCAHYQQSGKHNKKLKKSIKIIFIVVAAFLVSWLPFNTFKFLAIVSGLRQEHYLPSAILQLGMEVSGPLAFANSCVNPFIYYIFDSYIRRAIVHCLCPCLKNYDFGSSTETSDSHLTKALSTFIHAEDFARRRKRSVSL", "sequence of UniProt P11229 (whole entry, looked up)": "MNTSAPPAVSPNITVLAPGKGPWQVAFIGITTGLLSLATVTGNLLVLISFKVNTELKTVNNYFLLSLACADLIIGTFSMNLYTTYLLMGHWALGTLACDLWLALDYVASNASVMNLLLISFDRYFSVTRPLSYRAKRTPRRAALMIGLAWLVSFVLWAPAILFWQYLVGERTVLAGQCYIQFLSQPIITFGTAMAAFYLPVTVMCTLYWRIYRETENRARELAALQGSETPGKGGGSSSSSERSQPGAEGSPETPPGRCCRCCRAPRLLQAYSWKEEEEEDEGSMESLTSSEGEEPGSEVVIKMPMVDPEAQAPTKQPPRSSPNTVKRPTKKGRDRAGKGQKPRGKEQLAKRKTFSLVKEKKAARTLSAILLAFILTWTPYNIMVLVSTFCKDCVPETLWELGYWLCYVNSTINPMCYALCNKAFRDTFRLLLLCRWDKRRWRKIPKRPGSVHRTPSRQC", "sequence of UniProt P21462 (whole entry, looked up)": "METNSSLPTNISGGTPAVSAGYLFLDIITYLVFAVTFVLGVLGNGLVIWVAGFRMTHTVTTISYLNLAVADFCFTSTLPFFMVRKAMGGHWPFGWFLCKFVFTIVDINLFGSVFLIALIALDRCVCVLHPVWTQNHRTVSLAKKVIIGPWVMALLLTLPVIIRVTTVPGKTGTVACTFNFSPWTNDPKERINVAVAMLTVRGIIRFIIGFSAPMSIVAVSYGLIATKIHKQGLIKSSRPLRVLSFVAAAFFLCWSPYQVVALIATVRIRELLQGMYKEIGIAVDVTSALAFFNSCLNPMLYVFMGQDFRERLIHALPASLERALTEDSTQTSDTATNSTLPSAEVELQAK", "sequence of UniProt P07550 (whole entry, looked up)": "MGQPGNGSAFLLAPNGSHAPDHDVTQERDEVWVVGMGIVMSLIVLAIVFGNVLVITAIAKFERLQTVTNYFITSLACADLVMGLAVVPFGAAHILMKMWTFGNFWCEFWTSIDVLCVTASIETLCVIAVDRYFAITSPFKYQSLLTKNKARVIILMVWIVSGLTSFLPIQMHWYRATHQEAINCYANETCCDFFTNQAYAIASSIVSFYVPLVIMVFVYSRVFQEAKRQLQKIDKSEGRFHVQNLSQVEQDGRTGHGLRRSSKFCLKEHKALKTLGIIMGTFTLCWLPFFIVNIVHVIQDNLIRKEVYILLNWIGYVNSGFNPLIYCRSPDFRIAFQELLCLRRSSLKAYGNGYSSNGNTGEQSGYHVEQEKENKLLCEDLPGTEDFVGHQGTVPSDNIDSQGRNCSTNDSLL"}
{"SMILES": "O=C(O)CN(CC(=O)O)[C@@H](CCCCNC(=O)CCCC(=O)NCCOCCOCCOCCOCCC(=O)NCCCNCC(O)c1cccc(O)c1)C(=O)O (stereo partly drawn)", "target or system": "ADRB2 (Homo sapiens, UniProt P07550)", "test": "calcium response, agonist", "test system": "HEK-293T with Gα15", "endpoint": "EC50", "result": "1300 nM"}
{"SMILES": "CCCCOc1ccc(C(=O)OCCN2CC=CCC2)cc1", "target or system": "CHRM5", "test": "inositol phosphate accumulation, antagonist, Schild analysis", "test system": "CHO", "setting": "with: carbachol", "endpoint": "Kb", "result": "19500 nM"}
{"SMILES": "COc1ccc(OC)c2sc(N(CCN(C)C)C(=O)c3ccc4ccccc4c3)nc12", "target or system": "Trpc6 (Mus musculus, UniProt Q61143)", "test": "calcium signal, agonist, fluorescence", "endpoint": "EC50", "result": "~70800 nM and 70800 nM"}
{"SMILES": "CCC(=O)NCc1cc(C(=O)NCCN2CCN(CCCCC3CCN(CC(=O)N4c5ccccc5NC(=O)c5ccccc54)CC3)CC2)cc(C(=O)NCCN2CCN(CCOC(=O)C3c4ccccc4Oc4ccccc43)CC2)c1", "target or system": "CHRM5", "test": "ligand displacement, radioligand", "endpoint": "Ki", "result": "42.7 nM"}
{"SMILES": "COc1ccc(OC)c(COC(=O)c2ccc(O)cc2)c1", "target or system": "ESR2", "test": "coactivator recruitment, agonist", "endpoint": "EC50", "result": "1130 nM"}
{"SMILES": "CC/C(=C(\\c1ccccc1)c1ccc(OCCN(C)CCCCCCC(=O)NCCc2c[nH]c3ccc(OC)cc23)cc1)c1ccccc1", "target or system": "MTNR1A (Homo sapiens, UniProt P48039)", "test": "phosphorylation in cells, agonist, AlphaScreen", "endpoint": "EC50", "result": "308 nM"}
{"SMILES": "CCCCCCOc1ccc(C(=O)OCCN2CC=CCC2)cc1", "target or system": "CHRM5", "test": "inositol phosphate accumulation, antagonist, Schild analysis", "test system": "CHO", "setting": "with: carbachol", "endpoint": "Kb", "result": "2090 nM"}
{"SMILES": "CN1CCC=C(c2nsnc2OCCCN2CCN(CCCCC3CCN(CC(=O)N4c5ccccc5NC(=O)c5ccccc54)CC3)CC(N)C2)C1 (stereo not drawn)", "target or system": "CHRM1 (Homo sapiens, UniProt P11229)", "test": "ligand displacement, radioligand", "endpoint": "Ki", "result": "4.47 nM"}
{"SMILES": "CC(C)C[C@@H]1NC(=O)[C@H](CCCNC(=N)N)NC(=O)[C@H](C(C)C)NC(=O)[C@H](Cc2c[nH]cn2)NC(=O)[C@H](Cc2c[nH]cn2)NC(=O)CNC(=O)[C@H](CCCCN)NC(=O)[C@H](CC(C)C)NC(=O)[C@H](CC(N)=O)NC(=O)[C@H]([C@@H](C)O)NC(=O)[C@H](CO)NC(=O)[C@H](CC(N)=O)NC(=O)[C@@H]2CCCN2C(=O)[C@H](CO)NC(=O)[C@@H]2CCCN2C(=O)[C@H](C(C)C)NC(=O)[C@H](CCCNC(=N)N)NC(=O)[C@H](Cc2c[nH]cn2)NC(=O)[C@@H]2CSSC[C@H](NC1=O)C(=O)N[C@@H](CCCCN)C(=O)N1CCC[C@H]1C(=O)N[C@H](C(=O)N[C@@H](CCCCN)C(=O)N[C@@H](CC(C)C)C(=O)N[C@@H](CCC(=O)O)C(=O)N1CCC[C@H]1C(=O)N[C@@H](CCC(=O)O)C(=O)N1CCC[C@H]1C(=O)N[C@@H](CCCNC(=N)N)C(=O)N[C@@H](CC(C)C)C(=O)N[C@@H](Cc1c[nH]c3ccccc13)C(=O)N[C@H](C(=O)N[C@H](C(=O)N1CCC[C@H]1C(=O)NCC(=O)N[C@@H](C)C(=O)N[C@@H](CC(C)C)C(=O)N1CCC[C@H]1C(=O)N[C@@H](CCC(N)=O)C(=O)N[C@H](C(=O)O)C(C)C)C(C)C)C(C)C)CSSC[C@H](NC(=O)[C@H](CC(C)C)NC(=O)[C@H](CCCNC(=N)N)NC(=O)[C@@H](NC(=O)[C@H](CCCNC(=N)N)NC(=O)[C@H](CCCNC(=N)N)NC(=O)CNC(=O)[C@H](CO)NC(=O)[C@H](Cc1c[nH]c3ccccc13)NC(=O)[C@H](C)NC(=O)[C@H](CCCCN)NC(=O)[C@H](C)NC(=O)[C@@H]1CCCN1C(=O)[C@H](CCCNC(=N)N)NC(=O)[C@H](CCCNC(=N)N)NC(=O)[C@@H](N)CCCCN)[C@@H](C)O)C(=O)N2", "target or system": "G-protein coupled receptor 15, with Gi2 (Homo sapiens, UniProt P49685)", "test": "Gi2 activation, agonist, BRET", "test system": "HEK293A transfected GPR15", "endpoint": "EC50", "result": "72.4 nM"}
{"SMILES": "O=C(c1cc2c(s1)CCCCC2)N1CCC(n2c(=O)[nH]c3ccccc32)CC1", "target or system": "Trpc6 (Mus musculus, UniProt Q61143, E671C)", "test": "channel activation, agonist, whole-cell patch clamp", "endpoint": "EC50", "result": "6630 ± 400 nM"}
{"SMILES": "CC(C)C[C@H](NC(=O)[C@@H](N)[C@@H](C)O)C(=O)N[C@@H](CCC(N)=O)C(=O)N1CCC[C@H]1C(=O)N1CCC[C@H]1C(=O)N[C@@H](C)C(=O)N[C@@H](CO)C(=O)N[C@@H](CO)C(=O)N[C@@H](CCCNC(=N)N)C(=O)N[C@@H](CCCNC(=N)N)C(=O)N[C@@H](CCCNC(=N)N)C(=O)N[C@@H](Cc1c[nH]cn1)C(=O)N[C@@H](Cc1ccccc1)C(=O)N[C@@H](Cc1c[nH]cn1)C(=O)N[C@@H](Cc1c[nH]cn1)C(=O)N[C@@H](C)C(=O)N[C@@H](CC(C)C)C(=O)N1CCC[C@H]1C(=O)N1CCC[C@H]1C(=O)N[C@@H](C)C(=O)N[C@@H](CCCNC(=N)N)C(=O)O", "target or system": "C3AR1", "test": "β-arrestin recruitment, agonist", "endpoint": "EC50", "result": "2300 nM"}
{"SMILES": "CSCC[C@H](NC(=O)[C@H](CCCNC(=N)N)NC(=O)[C@H](CCCCN)NC(=O)[C@@H](N)Cc1c[nH]c2ccccc12)C(=O)N[C@H](C(=O)N[C@H](CCSC)C(N)=O)C(C)C", "target or system": "FPR1 (Homo sapiens, UniProt P21462)", "test": "binding, flow cytometry competition", "test system": "U-937", "setting": "4 °C, with: 5 nM WK(FL)YMVm probe", "endpoint": "EC50", "result": "no binding"}
{"SMILES": "CCNC(=O)[C@H]1O[C@@H](n2cnc3c(NCCCCNC(=O)CCCCCNC(=O)COc4ccc(/C=C/C5=[N+]6C(=Cc7ccc(-c8cccs8)n7[B-]6(F)F)C=C5)cc4)ncnc32)[C@H](O)[C@@H]1O", "target or system": "ADORA1", "test": "CRE-SPAP reporter gene, agonist", "test system": "CHO-A1", "setting": "Gs enhancement, with: forskolin", "endpoint": "EC50", "result": "417 nM"}
{"SMILES": "C=CCc1cccc(-c2cc(/C=C/C(=O)O)ccc2O)c1", "target or system": "Retinoic acid receptor RXR-alpha, homodimer (RXRA, Homo sapiens, UniProt P19793)", "endpoint": "EC50", "result": "31.6 nM"}
{"SMILES": "O=S(=O)(Oc1ccc(Cl)cc1)C1CC2OC1C(c1ccc(O)cc1)=C2c1ccc(O)cc1 (racemic)", "target or system": "ESR1", "test": "reporter gene, agonist, luciferase", "endpoint": "EC50", "result": "360 nM"}
{"SMILES": "Cc1ccc(Oc2nc3cc(-c4ccc5c(ccn5C)c4)c(Cl)cc3[nH]2)cc1C(=O)O", "target or system": "PRKAA1/PRKAB1, with gamma1 (Homo sapiens, UniProt Q13131+Q9Y478)", "test": "enzyme activity, activator, kinase", "setting": "α1β1γ1 complex, with: SAMS peptide substrate", "endpoint": "EC50", "result": "30 nM"}
{"SMILES": "CC(C)C[C@H](NC(=O)[C@@H](N)[C@@H](C)O)C(=O)N[C@@H](CCC(N)=O)C(=O)N1CCC[C@H]1C(=O)N1CCC[C@H]1C(=O)N[C@@H](C)C(=O)N[C@@H](CO)C(=O)N[C@@H](CO)C(=O)N[C@@H](CCCNC(=N)N)C(=O)N[C@@H](CCCNC(=N)N)C(=O)N[C@@H](CCCNC(=N)N)C(=O)N[C@@H](Cc1c[nH]cn1)C(=O)N[C@@H](Cc1ccccc1)C(=O)N[C@@H](Cc1c[nH]cn1)C(=O)N[C@@H](Cc1c[nH]cn1)C(=O)N[C@@H](C)C(=O)N[C@@H](CC(C)C)C(=O)N1CCC[C@H]1C(=O)N1CCC[C@H]1C(=O)N[C@@H](C)C(=O)N[C@@H](CCCNC(=N)N)C(=O)O", "target or system": "C3AR1", "test": "β-arrestin1 recruitment, agonist, BRET", "setting": "with: GRK2 co-expression", "endpoint": "EC50", "result": "191 nM"}
{"SMILES": "CCCn1c(=O)c2[nH]c(-c3ccc(OCC(=O)NCCNC(=O)CCCCCNC(=O)COc4ccc(/C=C/C5=[N+]6C(=Cc7ccc(-c8cccs8)n7[B-]6(F)F)C=C5)cc4)cc3)nc2n(CCC)c1=O", "target or system": "ADORA1", "test": "reporter gene, agonist", "endpoint": "EC50", "result": "117 nM"}
{"SMILES": "COc1ccc(SCC(=O)c2ccc(O)cc2O)cc1", "target or system": "ESR2", "test": "coactivator recruitment, agonist", "endpoint": "EC50", "result": "3740 nM"}
{"SMILES": "O=S(=O)(Oc1ccc2ccccc2c1)C1CC2OC1C(c1ccc(O)cc1)=C2c1ccc(O)cc1 (racemic)", "target or system": "ESR1", "test": "reporter gene, agonist, ERE luciferase", "test system": "HepG2 transfected with ERα", "setting": "24 h", "endpoint": "EC50", "result": "> 10000 nM"}
{"SMILES": "CC[C@H]1[C@@H](O)[C@@H]2[C@H](CC[C@]3(C)[C@@H]([C@H](C)CCOS(=O)(=O)[O-])CC[C@@H]23)[C@@]2(C)CC[C@@H](O)C[C@@H]12.[Na+]", "test system": "ob/ob NASH mice, plasma", "setting": "oral, 10 mg/kg once daily, 8 wk", "endpoint": "plasma ALT", "result": "250 ± 21.6 U/L"}
{"note": "A few entries again:"}
{"SMILES": "CCC(=O)NCc1cc(C(=O)NCCN2CCN(CCCCC3CCN(CC(=O)N4c5ccccc5NC(=O)c5ccccc54)CC3)CC2)cc(C(=O)NCCN2CCN(CCOC(=O)C3c4ccccc4Oc4ccccc43)CC2)c1", "target or system": "CHRM5", "test": "ligand displacement, radioligand", "endpoint": "Ki", "result": "42.7 nM"}
{"SMILES": "COc1ccc(OC)c(COC(=O)c2ccc(O)cc2)c1", "target or system": "ESR2", "test": "coactivator recruitment, agonist", "endpoint": "EC50", "result": "1130 nM"}
